Published values from different studies.
Numbered parts are unrelated; each lists some results of a single study. Substitutions count along the parent as printed.

Series 1 — method: DHFR PCA, deep sequencing; sample: yeast; with: (+)-ABA 4.8 µM; relative to: wild-type fitted maximum; reading: higher = stronger binding; quantity: relative binding score
Target: ABI1, truncated, D143A, DHFR fusion (Arabidopsis thaliana)
Setting: methotrexate growth selection, single substitutions
Parent: PYL1, truncated, DHFR fusion (Arabidopsis thaliana); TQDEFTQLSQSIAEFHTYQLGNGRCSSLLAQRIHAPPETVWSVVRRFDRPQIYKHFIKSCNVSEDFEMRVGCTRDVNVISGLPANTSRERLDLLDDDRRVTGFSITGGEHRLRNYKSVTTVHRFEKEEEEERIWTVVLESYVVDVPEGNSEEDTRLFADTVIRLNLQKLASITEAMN
E125I: 79.5%
L169N: 17.6%
T1R: 69.8%
Q10F: 32.3%
S42T: 55.9%
Q19T: 75.8%
C72L: 25.5%
A84G: 67.3%
L169W: 2.35%
V142W: 0.855%
S80W: 33.1%
P37K: -9.14%
S80K: 5.39%
L112F: 48.6%
E147R: 47.2%

Series 2 — method: universal PBM; form: double-stranded DNA, one strand shown; sample: in vitro; concentration: not given; reading: higher = stronger binding; quantity: E-score
Target: Sal-like protein 4, full length isoform B (SALL4, Homo sapiens, UniProt Q9UJQ4-2, residues 1-616)
Setting: 8-mer, flanks averaged, mean of replicates
ACAGCATA: 0.244
CCGAGGAA: -0.234
GTTCTATA: 0.22
CGTAGGCC: -0.0642
GGAGCTAC: -0.144
AAGGGGAG: -0.211
ATCACACC: -0.0639
AAGATGAA: 0.105
ACCAACGC: -0.107
GTTAGCAA: 0.134
AACCCTCC: -0.163
ACCCCGAC: -0.251
AACACGCG: -0.108
ATACTCCG: -0.00106
GGCCCGTA: -0.251
CATCTTGC: -0.0221
CTATGGCC: -0.164
GGAGAGAA: -0.165
AGGTAAAC: 0.127
CGTGTACA: 0.107
AGCCTATC: 0.0483
GTAGGGCA: -0.106
GCTTTCAA: -0.0773
CATAGTTA: 0.287
CATGATGC: 0.0542

Series 3 — method: RNA Bind-n-Seq; form: RNA; sample: in vitro; concentration: 365 nM; relative to: no-protein control; reading: higher = stronger binding; quantity: RBNS enrichment (R)
Target: RNA binding protein fox-1 homolog 2, RRM domain, GST-SBP tag (RBFOX2, Homo sapiens, UniProt O43251-10, residues 100-194)
Setting: natural RNA segment, single round, ends assumed
Residues (chain): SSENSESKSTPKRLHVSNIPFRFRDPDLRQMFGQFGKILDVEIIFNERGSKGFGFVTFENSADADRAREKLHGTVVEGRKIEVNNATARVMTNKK
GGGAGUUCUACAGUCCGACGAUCAGAUUGAUUUAAUUGUGGGCCACAACAGGAGACCUUCUUGGGAAUACAAAUGCAAAAUGCCUUAUACUGAAGCAGUUUUACAUGAAGUUUUAAGAUUCUGUAAUAUAGUUUGGAAUUCUCGGGUGCCAA: 0.472
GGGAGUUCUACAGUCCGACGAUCUACUUUGAACUGUCUCCUGCUUACAGGGGUGUAAUGGUUUCCUUUGACUAGAAGUCUAUUUGUGUUGUGGGGUGCGUGGGGAGAGCCAAGCAGGCAAAGCUGAACAUUUGUGGAAUUCUCGGGUGCCAA: 0.625
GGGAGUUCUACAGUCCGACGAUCAGCAGCGUUAGAGAGUGGGUUUGGUGGGUUGUGGAUAACCAAGAUGGCGUGAAGUAAUGGCAGUAGAAACCCAUGGACUUCUCUUGUUCUUUCUAUCGCUGUGGAUAAGAUGGAAUUCUCGGGUGCCAA: 0.826
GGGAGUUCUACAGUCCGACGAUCAUAUAUAUUUUAAUAUCUAUGUAAAAAAGUGACAGUGGAGGACUGAAUUUCUCAUGUAUACUAUGUUUAAUGGUAGGGUCUCACUGUUAAGGCACAAAUUAUUUCAAAGGUGGAAUUCUCGGGUGCCAA: 0.537
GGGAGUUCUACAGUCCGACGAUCGUGAUGCUUGUGUUGACCAGAUGUUCCUGAGUCUGGAGCAAGCACCCAGGCCAGAAUAACAGAGCUUUCUUAGUUGGUGAAGACUUAAACAUCUGCCUGAGGUCAGGAGGUGGAAUUCUCGGGUGCCAA: 0.407
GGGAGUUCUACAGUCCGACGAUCUACAUAAAAUGAUUUUAGUUCAGUUUUAACCAGUGAAAACUUUGUUUUUAUGAAAAAAAAGGAAAAUGGUUUCCCAUUUGGUUUUAUAUGUGUUAAAUAAAUGUGUAAAGUGGAAUUCUCGGGUGCCAA: 0.842
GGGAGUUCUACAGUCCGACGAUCCCCUACUUCUGUGUGCUCGAGCUGCCCCAGCCAUCACUGAGCCCACUCAGGACUGCUCCUGGAAGACAUCUCAAGGUGGGAAGCCUGGCUUUCCUGGGCUUUGCUUUCUUUGGAAUUCUCGGGUGCCAA: 0.297
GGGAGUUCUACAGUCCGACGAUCCUGGAAAGUAGUCUUGAGAGGCAGAAGCCGAAGGUUCGAGAGCCAGUGUUUAAUGUGCAGGAUCUAGAGAGUUGUCAAAGCAGAAGCUGAGAGCGCAGACCUAUUUCUAGUGGAAUUCUCGGGUGCCAA: 0.517
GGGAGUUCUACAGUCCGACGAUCGCCUUUCCCUUCUUUGAUCCCCUCCCUUCCAUUGUUCAUUCAUGAAGAGUUUUGUUAGAGACAAGCAAUCUGUAAUCCCUCACCUGAAGACCGCAGACUGCAGCUCUGUCUGGAAUUCUCGGGUGCCAA: 0.758
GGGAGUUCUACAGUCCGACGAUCGCCCUUGAGUGGGGCAGCCUCCUUGCCUGGAACUCACUCACUCUGGGUGCCUCCUCCCCAGGUGGAGGUGCCAGGAAGCUCCCUCCCUCACUGUGGGGCAUUUCACCAUUUGGAAUUCUCGGGUGCCAA: 0.283
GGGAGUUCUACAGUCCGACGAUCUAGCCUUGGCCCGAAGACAGAAAAUUCUCUCUGCCCUGCUGUAUCAUAAAGCACACACUUAGUGCCCUGGAGCAAGUCCAUGACUCCACAUGACCUUGGAAGCUUUCUUCUGGAAUUCUCGGGUGCCAA: 0.428
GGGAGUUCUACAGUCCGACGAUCCCCUUGGUCUUCGCUCCAUCGCCUUGAAAGCUCUGAAGAGGCCCUGGGUUGCCGCGGCAGCAGUGGUCUGUUUGAUGCUGCCGUUUGCCGCUGCCGGCCCCUCCUCAGACUGGAAUUCUCGGGUGCCAA: 0.656

Series 4 — target: CCND1, cyclin fold, Cln2 fusion (human); method: yeast growth competition, sequencing; sample: yeast; setting: weak parent motif; relative to: not given; reading: higher = stronger binding; quantity: normalised enrichment score
Parent: SAMHD1 docking peptide (human); ASKSRVQLFKDDP; partner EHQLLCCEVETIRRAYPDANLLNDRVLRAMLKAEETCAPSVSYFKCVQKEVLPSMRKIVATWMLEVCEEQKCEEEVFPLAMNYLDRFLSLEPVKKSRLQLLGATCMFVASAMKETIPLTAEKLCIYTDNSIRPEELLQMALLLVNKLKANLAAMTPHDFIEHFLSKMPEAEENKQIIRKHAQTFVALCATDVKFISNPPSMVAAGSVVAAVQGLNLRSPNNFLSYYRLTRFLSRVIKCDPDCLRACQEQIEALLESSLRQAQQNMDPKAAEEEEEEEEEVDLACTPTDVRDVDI
S4P: 0.0768
R5I: 1.39
K10I: 0.654
F9N: 0.282
V6R: 1.03
R5P: 0.492
Q7D: -0.311
K3E: 1.03
K10V: 0.55
K3Y: 0.257
K10A: 0.451
V6K: 0.471
L8D: 0.183
K3S: 0.93
K10E: 0.764
F9V: 0.278
D11R: 0.689
V6D: 0.159
S4L: -0.000761
V6L: 0.149
K3P: 1.28
L8E: 0.277
K10N: 0.492
Q7K: 0.75
S2M: 0.45

Series 5 — method: RNA Bind-n-Seq; form: RNA; sample: in vitro; concentration: not given; relative to: input RNA pool; reading: higher = stronger binding; quantity: bound/input enrichment
Target: RING finger protein unkempt homolog, zinc fingers 1-6, GST-SBP tag (UNK, Homo sapiens, UniProt Q9C0B0, residues 30-357)
UniProt Q9C0B0, sequence (30-357, looked up): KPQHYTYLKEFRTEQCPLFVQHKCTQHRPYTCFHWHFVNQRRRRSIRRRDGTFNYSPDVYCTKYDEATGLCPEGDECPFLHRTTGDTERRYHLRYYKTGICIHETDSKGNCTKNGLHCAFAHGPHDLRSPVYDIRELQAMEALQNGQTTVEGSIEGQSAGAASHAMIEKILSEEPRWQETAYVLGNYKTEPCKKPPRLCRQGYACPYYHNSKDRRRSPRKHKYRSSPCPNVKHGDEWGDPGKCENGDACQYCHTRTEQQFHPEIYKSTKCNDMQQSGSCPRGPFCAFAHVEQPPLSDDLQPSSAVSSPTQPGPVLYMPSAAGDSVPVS
Setting: RNA with constant flanks, human and mouse sites, ends assumed
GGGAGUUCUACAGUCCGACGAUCGGAGCUUUAUCUAAGGCUAUUGACAGAGGAACAAGGGGCAUUAGUUUUGUCCUCAGUGCGUUAGUAUUUAAUCUUCUCCCUAUUGUGUUUGAGAUGAUGCUUGUCAGUAGUGUUUUGUAUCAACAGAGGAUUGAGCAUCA: 15.4 ratio
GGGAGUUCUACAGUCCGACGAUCGAGUUCCCAGAGAAUGUACUUUUGCUUUGUCAUACUUAUCCUUGUUAUAUUUAAACAAUCUAGUACCCAAAAAAUGUGGGCCGUACUUUCUAGUGAGUCUAAGGAAAAGUCAUCUUUGAUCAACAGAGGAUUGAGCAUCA: 0.526 ratio
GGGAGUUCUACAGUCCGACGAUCAAGAACUAAUUGCAGAGAUAGGUUCAUUAUCUCUUCAUUGUACCAUAGAUGAGAAGCGGUUAGCUGGCUAUUGUCAAGCAUGUGAUGUUCUUGUACCUUCUUCUGAUAGUACAUCUCAACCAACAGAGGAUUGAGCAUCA: 0.229 ratio
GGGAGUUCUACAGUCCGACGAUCCCAACCAUAACAUCCAAGUCCAGUGUCAUUUUUCUGCUCACAAGUUUAAAGUCAGCACUUAAAAGAACAGCAACAGAUGAUUGAGAAAGAAAUGUAAAGAAGGUUCUCUUUGUGUGAGUACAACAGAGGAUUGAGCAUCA: 0.189 ratio
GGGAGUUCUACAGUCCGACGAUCAUGGGCCUAUUUGUUUGGUGCUGGCACCAACUCGGGAACUGGCCCAACAGGUGCAGCAAGUAGCUGCUGAAUAUUGUAGAGCAUGUCGCUUGAAGUCUACUUGUAUCUACGGUGGUGCUCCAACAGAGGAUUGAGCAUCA: 0.292 ratio
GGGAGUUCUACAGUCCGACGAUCUCAUUGGCUUCAAAUCCAGCACCUUUCCCGGCUGGUGCUCGUGACCCAAGUAUGGCUUCUUUUCCAAGAGGGAUGAAUCCCACUGGCACAGGUGCAGUUUCUUUCCCAAGGCCUGGUGGCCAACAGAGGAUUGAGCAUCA: 0.127 ratio
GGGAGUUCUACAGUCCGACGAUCGUUGAAGUUGUUGCUGUUUCGUCUAUCCAUACACAAGAUCCUUAUCUUGACAAAUUUUUUGCUCUGGUCAAUGCUCUGGAUGAACACCUGUUCCCAGUCCGAAUUGGGGACAUGCGAAUCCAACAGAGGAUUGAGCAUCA: 0.203 ratio
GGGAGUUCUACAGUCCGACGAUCCUGGCACACUCCGAGGAGCCGCUCACCAUCUUCAGCGGAGCCCUGCUCUACGAGGACACAGAGCUUGAACAGGUGUAGACAGGGUGGACCCGACCACCAAACUUAUCUACAGGGGCCGCACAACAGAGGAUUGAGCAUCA: 0.182 ratio
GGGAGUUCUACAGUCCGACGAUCUUCAGCUCACUGCUCCUUUUCUUUUUUUUCUUUCUCUCCCCCGCCCACCCCCCCAAAAAUAAUUGAUUUGCUUUACAAUCAUCCACACUGUGUUUUGUGGAUCUUUAAUUAUAUAUAACACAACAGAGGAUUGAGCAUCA: 0.962 ratio
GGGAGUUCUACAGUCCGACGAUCAUGAAGCUUUUAAAAUCUACAAUUUCUUCUUUAAAAAUAUUUAUUAAUGUGAAUGGAAUAUAACAAUUCAGCUUAAUUCCCCAACCUUAUUCUGUGUGUAGACAUUGUAUUCCACAAUUUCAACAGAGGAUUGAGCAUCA: 1.78 ratio
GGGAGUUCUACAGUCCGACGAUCAAGGUGCUUGAGCCAUACCCAUCUAAAUUAAGUGGCCUGAAAGGUAAAAAUAUUUUCUUGGUGGCUGCUACUCUCAGACCUGAGACCAUGUUUGGGCAGACAAAUUGUUGGGUUCGUCCUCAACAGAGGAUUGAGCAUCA: 0.269 ratio

For quick reference, copied from above (series 2):
ACAGCATA: 0.244
CGTAGGCC: -0.0642
AAGATGAA: 0.105
CGTGTACA: 0.107
AAGGGGAG: -0.211
AACCCTCC: -0.163
ACCCCGAC: -0.251
AACACGCG: -0.108
CATAGTTA: 0.287
CTATGGCC: -0.164
GGCCCGTA: -0.251
